Published values from different studies.
Each numbered part is a random draw from the data of one study; scales do not carry over between parts. Values joined by “and” are separate records of one study, mostly repeats; a detail may differ.
Chain of UniProt P41595 (whole entry, looked up): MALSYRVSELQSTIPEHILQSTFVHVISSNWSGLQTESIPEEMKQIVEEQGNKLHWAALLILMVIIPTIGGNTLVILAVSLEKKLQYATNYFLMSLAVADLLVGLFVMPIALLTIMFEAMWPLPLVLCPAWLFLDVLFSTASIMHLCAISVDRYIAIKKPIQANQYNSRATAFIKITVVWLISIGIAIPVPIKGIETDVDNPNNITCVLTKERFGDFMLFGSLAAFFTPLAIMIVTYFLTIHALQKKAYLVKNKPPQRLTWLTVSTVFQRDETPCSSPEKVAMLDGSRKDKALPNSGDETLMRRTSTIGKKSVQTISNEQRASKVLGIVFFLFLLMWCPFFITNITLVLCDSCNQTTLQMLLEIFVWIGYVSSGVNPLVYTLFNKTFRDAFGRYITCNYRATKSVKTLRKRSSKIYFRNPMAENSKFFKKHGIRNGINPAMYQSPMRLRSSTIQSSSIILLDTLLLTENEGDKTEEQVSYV
Chain of UniProt P28221 (whole entry, looked up): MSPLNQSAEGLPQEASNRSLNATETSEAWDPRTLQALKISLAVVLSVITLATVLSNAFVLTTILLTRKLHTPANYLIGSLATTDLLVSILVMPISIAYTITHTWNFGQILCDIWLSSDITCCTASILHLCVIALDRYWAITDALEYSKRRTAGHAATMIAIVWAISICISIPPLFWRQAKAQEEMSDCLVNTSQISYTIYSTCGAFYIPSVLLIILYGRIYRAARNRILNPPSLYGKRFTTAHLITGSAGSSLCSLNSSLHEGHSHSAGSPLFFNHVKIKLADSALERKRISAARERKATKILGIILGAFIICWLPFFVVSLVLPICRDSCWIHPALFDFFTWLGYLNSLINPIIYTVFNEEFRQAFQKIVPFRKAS
Chain of UniProt P46098 (whole entry, looked up): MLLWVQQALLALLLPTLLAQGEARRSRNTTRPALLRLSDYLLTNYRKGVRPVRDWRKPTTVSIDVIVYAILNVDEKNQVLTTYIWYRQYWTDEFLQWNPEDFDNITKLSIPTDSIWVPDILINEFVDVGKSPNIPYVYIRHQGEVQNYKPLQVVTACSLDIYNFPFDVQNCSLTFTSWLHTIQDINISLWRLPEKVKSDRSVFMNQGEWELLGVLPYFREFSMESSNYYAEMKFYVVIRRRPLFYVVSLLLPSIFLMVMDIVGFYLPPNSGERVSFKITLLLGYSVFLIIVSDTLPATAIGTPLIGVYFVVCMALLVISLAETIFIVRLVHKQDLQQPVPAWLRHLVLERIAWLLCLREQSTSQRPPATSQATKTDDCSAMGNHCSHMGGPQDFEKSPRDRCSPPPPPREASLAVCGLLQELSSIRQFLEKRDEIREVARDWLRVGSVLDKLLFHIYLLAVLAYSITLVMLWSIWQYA

Block 1 — organism: Leishmania infantum; technique: qPCR, delta Ct; host: golden hamster, infected; route: oral; dose: 10 mg/kg/day; time: 10 days; baseline: microglobulin reference gene; measurement: relative mRNA level
SMILES: c1ccc(Oc2ccc(Nc3c4c(nc5ccccc35)CCC4)cc2)cc1
refers to: TGF-beta; liver: 8.17 and 7.81 and 6.27 and 6.28 and 4.88 and 7.61
refers to: IL10; spleen: 5.18 and 5.44 and 5.75 and 5.4
refers to: IFN-gamma; liver: 9.5 and 11.1 and 9.99 and 11.8
refers to: IFN-gamma; spleen: 5.75 and 6.76 and 8.82 and 10.8 and 10.5

Block 2 — effect on: binding; technique: radioligand binding; tested at: 10 µM; measurement: inhibition
SMILES: COCCc1ccc(-c2c(C)nc3c(N4CCOCC4)ccnn23)cn1
HTR2B (Homo sapiens, UniProt P41595): 52.2%
HTR1D (Homo sapiens, UniProt P28221): 11.5%
HTR3A (Homo sapiens, UniProt P46098): 4.69%

Mixed results
CCC[C@@H]1NC(=O)CSC[C@@H](C(=O)OCC)N(C)C(=O)[C@H](CC(C)C)NC(=O)[C@@H](C)N(C)C(=O)[C@@H](CC(C)C)NC(=O)[C@H](C)N(C)C(=O)[C@@H]2CCCN2C(=O)[C@H](CC(C)C)NC(=O)CN(CCC)C1=O  logD (hydrocarbon/water): 0.554
c1ccc2c(-c3nn4c(-c5ccncc5)nnc4s3)c[nH]c2c1  remaining activity (α-galactosidase (human, wild type); healthy dermal fibroblasts; 0.5 µM, without ISRIB; baseline: DMSO): 123% and 150% and 107% and 114%
